Results of several laboratories.
Each line is one published result; not all experiments were run side by side. pIC50: −log10 of the molar value.
Target: Cytochrome P450 3A4 (CYP3A4, Homo sapiens, UniProt P08684)

Protein sequences, listed by entry. Tags and fused reporters are not part of them.
UniProt P08684, whole entry: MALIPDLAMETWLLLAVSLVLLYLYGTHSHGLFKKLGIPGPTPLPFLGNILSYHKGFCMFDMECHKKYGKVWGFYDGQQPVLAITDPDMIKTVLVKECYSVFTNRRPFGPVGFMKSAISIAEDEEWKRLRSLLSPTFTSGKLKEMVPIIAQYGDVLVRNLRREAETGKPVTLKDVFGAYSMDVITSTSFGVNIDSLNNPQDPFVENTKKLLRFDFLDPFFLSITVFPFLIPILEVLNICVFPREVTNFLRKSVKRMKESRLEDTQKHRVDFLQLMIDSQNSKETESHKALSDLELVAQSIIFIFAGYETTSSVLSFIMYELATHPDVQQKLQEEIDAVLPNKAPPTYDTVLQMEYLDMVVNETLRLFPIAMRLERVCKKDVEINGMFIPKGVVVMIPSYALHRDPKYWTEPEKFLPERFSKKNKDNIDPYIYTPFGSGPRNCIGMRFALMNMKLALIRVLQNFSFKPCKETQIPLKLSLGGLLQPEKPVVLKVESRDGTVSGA

SMILES	effect on	action	method	concentration	added	measurement	value
COc1ccc(NC(=O)CN2CCCN(S(=O)(=O)c3ccccc3)CC2)c(OC)c1	enzyme activity	inhibitor	–	–	–	pIC50	5.15
COc1cc2c(cc1CCCOC(=O)c1ccccc1)OCO2	enzyme activity	inhibitor	fluorescence	–	dibenzyl fluorescein substrate	pIC50	5.68
Cc1ccc(NC(=O)C2CC3CCC2C3)cc1 (centres unmarked)	enzyme activity	inhibitor	–	–	–	pIC50	< 4.52
O=C(N[C@H](Cc1ccccc1)C(=O)O)c1sc2cc(F)ccc2c1Cl	enzyme activity	–	–	concentration not given	–	inhibition	no effect
COc1ccc(NC(=O)CN2CCCN(S(=O)(=O)c3ccc(C)cc3)CC2)c(OC)c1	enzyme activity	inhibitor	–	–	–	pIC50	5.52
Cc1n[nH]c(C)c1CCOC(=O)c1cccc2c1oc(=O)n2C	–	inhibitor	–	10 µM	–	inhibition	14.1%
CC(Cc1cc2c(cc1OCc1ccccc1)OCO2)OC(=O)C(c1ccccc1)c1ccccc1 (centres unmarked)	enzyme activity	inhibitor	fluorescence	–	dibenzyl fluorescein substrate	pIC50	6.80
Cc1cccc(NC(=O)C2CC3CCC2C3)c1C (centres unmarked)	enzyme activity	inhibitor	–	–	–	pIC50	< 4.52

For quick reference, copied from above:
SMILES	effect on	action	method	concentration	added	measurement	value
COc1ccc(NC(=O)CN2CCCN(S(=O)(=O)c3ccccc3)CC2)c(OC)c1	enzyme activity	inhibitor	–	–	–	pIC50	5.15
